# Results gathered from unrelated publications.
# A part holds a random share of what one study measured. Values joined by “and” are separate records of one study, mostly repeats; a detail may differ.

# Set 1 — cell line: MDA-MB-468; effect on: cell viability; technique: CellCounting-Lite; concentration: 8.23 nM; temperature: 37 °C; direction: higher = more viable cells
SMILES,luminescence signal
CC(=O)N1CCN(c2nc(NCc3nc4cc(Cl)c(Cl)cc4[nH]3)c3ncn(C(C)C)c3n2)CC1,490000 a.u. and 486000 a.u. and 466000 a.u.
CCn1cnc2c(NCc3nc4cc(Cl)c(Cl)cc4[nH]3)nc(N3CCN(C(=O)CNC(C)=O)CC3)nc21,239000 a.u. and 197000 a.u. and 210000 a.u.
CCn1cnc2c(NCc3nc4cc(Cl)c(Cl)cc4[nH]3)nc(N3CCN(C(=O)c4ccncc4)CC3)nc21,108000 a.u. and 95500 a.u. and 109000 a.u.
CCn1cnc2c(NCc3nc4cc(Cl)c(Cl)cc4[nH]3)nc(N3CCN(C(C)=O)CC3)nc21,169000 a.u. and 153000 a.u. and 168000 a.u.
CC(=O)N1CCN(c2nc(NCc3nc4cc(Cl)c(Cl)cc4[nH]3)c3ncn(-c4cnn(C)c4)c3n2)CC1,446000 a.u. and 550000 a.u. and 461000 a.u.
CCn1cnc2c(NCc3nc4ccc(F)c(F)c4[nH]3)nc(N3CCn4ncnc4C3)nc21,465000 a.u. and 422000 a.u. and 479000 a.u.
CCCCOc1nc(NCc2nc3cc(Cl)c(Cl)cc3[nH]2)c2ncn(CC)c2n1,486000 a.u. and 471000 a.u. and 402000 a.u.
Cn1cc(-n2cnc3c(NCc4nc5cc(Cl)c(Cl)cc5[nH]4)nc(N4CCNCC4)nc32)cn1,429000 a.u. and 408000 a.u. and 480000 a.u.

# Set 2 — technique: DNA microarray; reference: untreated cells
# Structure (SMILES): COCC1CC2C(CCC3(C)C(O)CCC23)c2ccc(O)cc21 (stereo not drawn)
cell line,measured,concentration,setting,mRNA level ratio
SK-OV-3,CDC25B,concentration not given,higher dose arm,1.21
PANC-1,ADAMTS8,concentration not given,lower dose arm,1
PANC-1,KIF20A,concentration not given,higher dose arm,0.28 and 0.276 and 0.279 and 0.274
A549,CDCA8,50 µM,,0.766
PANC-1,CCL22,concentration not given,lower dose arm,1
PANC-1,GTSE1,concentration not given,higher dose arm,0.419
A549,MCM7,100 µM,,0.602
A549,CDCA8,100 µM,,0.511

# Mixed results
SMILES,tested on,effect on,matrix,dose,setting,endpoint,result
C=CCN1C(=O)C(O)(C(=O)O)Oc2cc(F)ccc21 (stereo not drawn),Eclipta prostrata,fresh weight,,150 g ai/ha,post-emergence treatment,inhibition,50.4% and 47.9% and 52.8%
Cn1cc(-c2cccc(CN3CCC4(CC3)COc3c4ccc4c3CN([C@H]3CCC(=O)NC3=O)C4=O)c2)cn1,,,FaSSIF,,,solubility,305 µM

# Repeated from above (set 2):
cell line,measured,concentration,setting,mRNA level ratio
A549,CDCA8,50 µM,,0.766
A549,CDCA8,100 µM,,0.511
